Experimental data pooled from the literature.
Parts stem from different laboratories: compare values within a part only.
Sequence of UniProt Q96NX5 (whole entry, looked up): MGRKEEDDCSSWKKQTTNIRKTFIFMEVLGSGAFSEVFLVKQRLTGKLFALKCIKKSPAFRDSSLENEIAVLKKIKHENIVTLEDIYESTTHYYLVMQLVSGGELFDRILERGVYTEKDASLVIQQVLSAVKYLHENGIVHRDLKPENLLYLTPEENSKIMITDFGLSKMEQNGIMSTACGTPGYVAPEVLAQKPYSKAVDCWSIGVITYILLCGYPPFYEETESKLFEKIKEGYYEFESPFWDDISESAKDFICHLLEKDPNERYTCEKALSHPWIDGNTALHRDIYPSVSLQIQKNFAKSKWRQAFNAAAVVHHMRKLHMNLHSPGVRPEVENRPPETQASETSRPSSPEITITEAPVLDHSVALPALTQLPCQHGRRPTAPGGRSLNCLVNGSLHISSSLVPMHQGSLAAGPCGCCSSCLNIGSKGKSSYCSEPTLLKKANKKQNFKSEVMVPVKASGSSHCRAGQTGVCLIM
Sequence of UniProt P46098 (whole entry, looked up): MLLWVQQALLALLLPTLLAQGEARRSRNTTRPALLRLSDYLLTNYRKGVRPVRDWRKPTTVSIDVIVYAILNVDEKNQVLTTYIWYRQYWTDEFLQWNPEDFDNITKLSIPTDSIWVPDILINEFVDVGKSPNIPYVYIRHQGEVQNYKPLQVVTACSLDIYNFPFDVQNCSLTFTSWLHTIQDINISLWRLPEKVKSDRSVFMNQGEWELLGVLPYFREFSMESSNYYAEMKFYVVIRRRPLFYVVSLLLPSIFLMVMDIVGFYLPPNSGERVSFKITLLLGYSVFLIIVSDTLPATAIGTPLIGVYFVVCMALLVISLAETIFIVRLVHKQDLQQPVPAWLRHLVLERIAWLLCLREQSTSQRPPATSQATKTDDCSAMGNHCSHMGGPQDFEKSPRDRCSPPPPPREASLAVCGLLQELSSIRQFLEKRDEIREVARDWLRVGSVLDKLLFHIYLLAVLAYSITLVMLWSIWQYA
Sequence of UniProt P11362 (whole entry, looked up): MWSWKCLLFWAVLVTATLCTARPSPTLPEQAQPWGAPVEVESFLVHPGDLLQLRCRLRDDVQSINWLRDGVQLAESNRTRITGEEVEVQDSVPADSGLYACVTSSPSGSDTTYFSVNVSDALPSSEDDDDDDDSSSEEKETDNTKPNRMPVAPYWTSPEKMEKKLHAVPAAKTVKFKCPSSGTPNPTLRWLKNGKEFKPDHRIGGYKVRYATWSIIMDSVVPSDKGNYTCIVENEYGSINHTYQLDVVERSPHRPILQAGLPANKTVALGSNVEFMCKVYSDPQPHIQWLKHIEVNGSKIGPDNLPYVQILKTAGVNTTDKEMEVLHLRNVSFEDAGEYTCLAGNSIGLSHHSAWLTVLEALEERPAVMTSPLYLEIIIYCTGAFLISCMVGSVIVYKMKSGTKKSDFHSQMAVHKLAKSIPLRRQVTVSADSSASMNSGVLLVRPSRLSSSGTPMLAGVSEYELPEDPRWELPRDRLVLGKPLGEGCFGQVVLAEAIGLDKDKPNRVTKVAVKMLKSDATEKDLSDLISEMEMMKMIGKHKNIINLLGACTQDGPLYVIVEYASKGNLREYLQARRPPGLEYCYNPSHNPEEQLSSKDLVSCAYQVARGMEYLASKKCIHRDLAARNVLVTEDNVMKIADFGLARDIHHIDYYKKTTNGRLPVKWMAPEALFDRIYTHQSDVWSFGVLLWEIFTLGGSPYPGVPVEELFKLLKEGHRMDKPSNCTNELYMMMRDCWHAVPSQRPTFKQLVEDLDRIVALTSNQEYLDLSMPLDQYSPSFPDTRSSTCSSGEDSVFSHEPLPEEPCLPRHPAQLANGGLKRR

Block 1
Compound: COc1cc(C(=O)N2CCC(N3CCN(C)CC3)CC2)ccc1Nc1ncc2c(n1)N(C)c1ccccc1C(=O)N2C
It gave greater than 10 µM for EC50 (CAMK1G (Homo sapiens, UniProt Q96NX5); kinase–CDC37 interaction; kinome plate 3@B11).
For ACVR1B (Homo sapiens, UniProt P36896); kinase–CDC37 interaction, inhibitor; human cells; kinome plate 1@G03: EC50 read greater than 10 µM.
For FGFR1 (Homo sapiens, UniProt P11362); kinase–CDC37 interaction, inhibitor; human cells; kinome plate 1@C02: EC50 read greater than 10 µM.
It gave greater than 10 µM for EC50 (Aurora kinase B (AURKB, Homo sapiens, UniProt Q96GD4); kinase-HSP90-CDC37 interaction, LUMIER; human cells).

Block 2 — read-out: enzyme activity; mode: inhibitor; concentration: 77 µM; baseline: untreated
Target: DNA polymerase theta, ATPase domain (POLQ, Homo sapiens, UniProt O75417)
Sequence of UniProt O75417 (whole entry, unmodified, looked up): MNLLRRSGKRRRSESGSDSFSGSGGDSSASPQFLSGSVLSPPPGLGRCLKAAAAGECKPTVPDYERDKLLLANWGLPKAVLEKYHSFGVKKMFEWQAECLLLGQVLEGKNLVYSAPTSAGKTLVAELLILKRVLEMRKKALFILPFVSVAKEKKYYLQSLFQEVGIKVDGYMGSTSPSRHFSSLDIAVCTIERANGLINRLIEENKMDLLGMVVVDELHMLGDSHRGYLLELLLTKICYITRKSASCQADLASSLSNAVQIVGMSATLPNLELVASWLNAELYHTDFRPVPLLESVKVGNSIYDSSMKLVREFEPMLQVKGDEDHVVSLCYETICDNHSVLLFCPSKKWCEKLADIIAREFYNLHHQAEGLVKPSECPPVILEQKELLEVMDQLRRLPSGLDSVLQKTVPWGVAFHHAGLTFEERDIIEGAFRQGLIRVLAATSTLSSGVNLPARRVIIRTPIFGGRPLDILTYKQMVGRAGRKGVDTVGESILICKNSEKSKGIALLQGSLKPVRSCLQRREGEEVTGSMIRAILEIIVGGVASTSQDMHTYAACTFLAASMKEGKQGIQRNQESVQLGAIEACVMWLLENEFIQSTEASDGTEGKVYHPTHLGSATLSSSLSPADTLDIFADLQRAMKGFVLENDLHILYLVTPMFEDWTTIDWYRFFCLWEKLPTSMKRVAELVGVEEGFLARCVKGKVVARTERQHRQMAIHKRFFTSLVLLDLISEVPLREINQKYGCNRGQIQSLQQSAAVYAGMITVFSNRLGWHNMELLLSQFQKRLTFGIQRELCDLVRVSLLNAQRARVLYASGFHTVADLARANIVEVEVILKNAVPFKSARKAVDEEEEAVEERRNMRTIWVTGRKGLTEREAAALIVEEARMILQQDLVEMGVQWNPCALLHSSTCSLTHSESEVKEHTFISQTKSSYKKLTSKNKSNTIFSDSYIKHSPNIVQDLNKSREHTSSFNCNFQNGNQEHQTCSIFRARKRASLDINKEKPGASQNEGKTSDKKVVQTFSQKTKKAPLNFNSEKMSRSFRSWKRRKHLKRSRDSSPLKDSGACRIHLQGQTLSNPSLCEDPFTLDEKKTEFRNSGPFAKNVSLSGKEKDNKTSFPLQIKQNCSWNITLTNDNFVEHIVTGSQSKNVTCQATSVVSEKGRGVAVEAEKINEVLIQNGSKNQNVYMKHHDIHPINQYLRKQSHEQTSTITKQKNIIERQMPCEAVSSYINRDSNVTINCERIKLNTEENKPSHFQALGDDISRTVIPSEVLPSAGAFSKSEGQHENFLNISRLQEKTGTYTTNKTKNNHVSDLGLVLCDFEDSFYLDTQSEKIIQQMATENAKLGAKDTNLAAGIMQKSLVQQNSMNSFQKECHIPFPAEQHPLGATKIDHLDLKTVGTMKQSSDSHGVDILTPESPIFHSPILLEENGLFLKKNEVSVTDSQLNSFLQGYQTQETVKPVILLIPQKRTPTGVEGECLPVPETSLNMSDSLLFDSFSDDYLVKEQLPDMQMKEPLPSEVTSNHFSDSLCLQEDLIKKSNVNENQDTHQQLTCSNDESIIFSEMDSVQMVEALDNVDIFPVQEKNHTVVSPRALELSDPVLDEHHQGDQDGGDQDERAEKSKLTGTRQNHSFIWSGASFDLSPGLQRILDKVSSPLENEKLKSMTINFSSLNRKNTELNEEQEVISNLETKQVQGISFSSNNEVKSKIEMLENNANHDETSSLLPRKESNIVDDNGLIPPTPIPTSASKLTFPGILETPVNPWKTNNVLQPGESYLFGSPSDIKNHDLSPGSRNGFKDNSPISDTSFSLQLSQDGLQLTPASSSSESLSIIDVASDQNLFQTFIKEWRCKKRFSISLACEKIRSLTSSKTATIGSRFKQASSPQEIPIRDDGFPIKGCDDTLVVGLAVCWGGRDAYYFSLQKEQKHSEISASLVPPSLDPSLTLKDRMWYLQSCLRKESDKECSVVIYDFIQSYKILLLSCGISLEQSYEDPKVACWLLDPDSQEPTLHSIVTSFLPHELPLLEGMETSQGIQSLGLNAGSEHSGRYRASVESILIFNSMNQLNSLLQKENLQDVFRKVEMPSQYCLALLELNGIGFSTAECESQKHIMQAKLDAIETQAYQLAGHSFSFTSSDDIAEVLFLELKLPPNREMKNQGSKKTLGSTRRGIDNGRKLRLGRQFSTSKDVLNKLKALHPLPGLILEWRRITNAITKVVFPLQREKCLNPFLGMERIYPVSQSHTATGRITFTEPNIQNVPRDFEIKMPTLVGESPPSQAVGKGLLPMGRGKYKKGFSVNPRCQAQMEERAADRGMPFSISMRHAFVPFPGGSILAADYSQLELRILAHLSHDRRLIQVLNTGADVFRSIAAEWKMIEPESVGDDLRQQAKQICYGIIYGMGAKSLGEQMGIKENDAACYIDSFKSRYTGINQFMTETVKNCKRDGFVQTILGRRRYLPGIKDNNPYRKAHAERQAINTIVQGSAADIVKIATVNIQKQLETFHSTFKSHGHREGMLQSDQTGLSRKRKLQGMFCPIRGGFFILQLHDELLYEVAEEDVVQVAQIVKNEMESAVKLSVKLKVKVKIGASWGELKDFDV
The remaining activity of `CCCCC(CC)CNC(=N)NC(=N)NCCCCCCNC(=N)NC(=N)NCC(CC)CCCC` (centres unmarked) is reported as 102%.
With `O=Nc1c(-c2c(O)[nH]c3cc(Br)ccc23)[nH]c2ccccc12` the remaining activity was 102%.
With `COc1c2ccoc2cc2oc(=O)ccc12` the remaining activity was 106%.
`OCc1ccc(-c2ccc(-c3ccc(CO)s3)o2)s1` has a remaining activity of 102%.
With `C[C@]1(c2nc3c(C(N)=O)cccc3[nH]2)CCCN1` the remaining activity was 95.8%.

Block 3 — read-out: enzyme activity; mode: inhibitor; concentration: 0.5 µM; baseline: control
Target: Casein kinase I isoform epsilon (CSNK1E, Homo sapiens, UniProt P49674)
Sequence of UniProt P49674 (whole entry, looked up): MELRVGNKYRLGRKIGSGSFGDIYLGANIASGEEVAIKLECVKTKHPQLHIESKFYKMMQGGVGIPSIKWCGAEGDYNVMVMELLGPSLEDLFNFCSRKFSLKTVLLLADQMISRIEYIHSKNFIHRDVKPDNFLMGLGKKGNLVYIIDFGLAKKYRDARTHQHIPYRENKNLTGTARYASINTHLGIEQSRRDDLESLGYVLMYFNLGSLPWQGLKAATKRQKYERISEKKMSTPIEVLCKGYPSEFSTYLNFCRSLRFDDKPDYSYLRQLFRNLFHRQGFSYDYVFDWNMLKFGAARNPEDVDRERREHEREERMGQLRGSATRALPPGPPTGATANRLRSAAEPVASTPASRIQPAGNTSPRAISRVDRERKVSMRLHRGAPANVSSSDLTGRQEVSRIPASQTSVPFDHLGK
The remaining activity of `Oc1ccc(-c2nc(-c3ccncc3)c(-c3ccc(F)cc3)[nH]2)cc1` is reported as 32.7%.
`O=C(CCCc1ccc(-c2ccccc2F)cc1)Nc1ccc(O)cc1` has a remaining activity of 99.4%.
`C#Cc1cccc(Nc2ncnc3cc(OCCOC)c(OCCOC)cc23)c1` has a remaining activity of 98.2%.
`O=S(=O)(c1cccc2cnccc12)N1CCCNCC1` has a remaining activity of 99.3%.
`O=C1NC(=O)C(c2cn(CCCO)c3ncccc23)=C1c1cnccn1` has a remaining activity of 93.9%.
`CC(C)[C@H](CO)Nc1nc(Nc2cc(N)cc(Cl)c2)c2ncn(C(C)C)c2n1` has a remaining activity of 82.7%.
With `COc1ccc(C(=O)Nc2sc3c(c2C(N)=O)CCCC3)cc1OC` the remaining activity was 94%.
`Nc1ncnc2n[nH]c(Nc3ccc(F)cc3)c12` has a remaining activity of 80.5%.
For `COc1ccc(CNC(=O)Nc2ncc([N+](=O)[O-])s2)cc1`, the remaining activity was 102%.
With `Cc1ccc(Nc2nccc(N(C)c3ccc4c(C)n(C)nc4c3)n2)cc1S(N)(=O)=O` the remaining activity was 97.5%.
For `Cn1sc(=O)n(Cc2ccccc2)c1=O`, the remaining activity was 100%.
For `COc1cc2ncnc(Nc3ccc(Oc4ccccc4)cc3)c2cc1OC`, the remaining activity was 100%.
`N#CC(C#N)=C(N)/C(C#N)=C/c1ccc(O)cc1` has a remaining activity of 92.4%.
The remaining activity of `Cc1nc(-c2ccccc2)c(-c2ccncc2)o1` is reported as 69.9%.
`NCCNc1ncc(C(N)=O)c(Nc2cccc(C(F)(F)F)c2)n1` has a remaining activity of 91.4%.

Block 4 — host: mouse; matrix: microsomes or S9; concentration: 2 µM; time: 0.5 h
The remaining compound of `COc1cc(OC)c(CC2C(=O)N(c3ccccc3)c3ccccc32)c(OC)c1` (centres unmarked) is reported as 0.646%.
With `Nc1nc(N2CCc3ccccc3C2)nc2ccccc12` the remaining compound was 0.092%.
With `Cc1nc2c(cc1-c1ccccc1)[nH]c(=O)n2Cc1ccc(-c2cc(CC(C)C)sc2S(=O)(=O)NC(C)(C)C)cc1` the remaining compound was 17.7%.
The remaining compound of `COC(=O)c1c(C)n(C(C)=O)c2ccc(NS(=O)(=O)c3cccs3)cc12` is reported as 61.2%.
`CCOC(=O)C1CCN(c2nc(C)cc(Cl)n2)CC1` has a remaining compound of 0.00274%.
The remaining compound of `O=C(Cn1ncc2ccccc2c1=O)NCCn1nc2c(cc1=O)CCCCC2` is reported as 7.31%.

Other studies, line by line — read-out: binding; technique: radioligand binding
`Cc1ncc(-c2cc(Cl)ccc2F)cc1-n1c(=O)n(CC(N)=O)c2ccccc21` has a Ki of 1.59 µM (HTR2B (Homo sapiens, UniProt P41595)).
`CNC(=O)c1ccc(Nc2ncc(C(F)(F)F)c(NCc3nccnc3N(C)S(C)(=O)=O)n2)cc1` gave an inhibition of 6.5% (HTR3A (Homo sapiens, UniProt P46098); 10 µM).

Excerpt of the above (block 1):
It gave greater than 10 µM for EC50 (Aurora kinase B (AURKB, Homo sapiens, UniProt Q96GD4); kinase-HSP90-CDC37 interaction, LUMIER; human cells).
For ACVR1B (Homo sapiens, UniProt P36896); kinase–CDC37 interaction, inhibitor; human cells; kinome plate 1@G03: EC50 read greater than 10 µM.
It gave greater than 10 µM for EC50 (CAMK1G (Homo sapiens, UniProt Q96NX5); kinase–CDC37 interaction; kinome plate 3@B11).
For FGFR1 (Homo sapiens, UniProt P11362); kinase–CDC37 interaction, inhibitor; human cells; kinome plate 1@C02: EC50 read greater than 10 µM.
